Published values pooled from the literature.
Each line is one published result; not all experiments were run side by side.
Target: Acetylcholinesterase (ACHE, Homo sapiens, UniProt P22303)

SMILES = Cc1cnc(C2CCOCC2)n1C1CCN(C(=O)Nc2ccccc2F)CC1; read-out = enzyme activity; action = inhibitor; method = Ellman; tested at = 10 µM; inhibition = 16.8%
SMILES = CCc1nc2ccc(C(=O)NCCCn3ccnc3)cn2c1N(C)Cc1ccc(N(C)C)cc1; read-out = enzyme activity; action = inhibitor; cells = SH-SY5Y; tested at = IC50 concentration; inhibition = 10%
SMILES = CS(C)(=O)=Nc1ccc(-c2ccc(-c3nc4cc(O[C@@H]5CO[C@H]6[C@@H]5OC[C@H]6O)[nH]c4cc3F)cc2)cc1; read-out = enzyme activity; action = inhibitor; tested at = 10 µM; inhibition = -5%
SMILES = CCCCNC(=O)c1ccc2nc(CC)c(N(C)Cc3ccc(OC)cc3)n2c1; read-out = enzyme activity; action = inhibitor; cells = SH-SY5Y; tested at = concentration not given; inhibition = 40%
SMILES = O=C(c1cc(Cc2n[nH]c(=O)c3ccccc23)ccc1F)N1CC(CNC2CC2)C1; read-out = enzyme activity; action = inhibitor; tested at = 10 µM; inhibition = 37%
SMILES = O=C(Nc1cccnc1)c1cccc(C2(CNCc3ccc(F)c(F)c3)CC2)c1; read-out = enzyme activity; action = inhibitor; cells = SH-SY5Y; tested at = concentration not given; inhibition = 20%
SMILES = Cc1ccc2c(n1)c(-c1cccc(S(C)(=O)=O)c1)c(C)n2C/C(F)=C/CN; read-out = cell-free assay; tested at = 10 µM; inhibition = -16%
SMILES = Cc1cc(-c2ccc3ccccc3c2)nnc1NCCN1CCN(C)CC1; read-out = enzyme activity; action = inhibitor; tested at = concentration not given; inhibition = negative
SMILES = CCN(CC)CCOc1ccc(-c2nnn(Cc3ccc(OC)cc3)c2N)cc1; tested at = concentration not given; inhibition = -0.97%
SMILES = O=C(NCC1CCc2nccn2C1)c1cnc2ccccn12 (stereo not shown); read-out = enzyme activity; action = inhibitor; method = Ellman; tested at = 10 µM; inhibition = 27.8%
SMILES = CCOC(=O)[C@](CC)(CCCSCCOCCOCCNC(=O)c1ccc(-c2c3ccc(=N)c(S(=O)(=O)O)c-3oc3c(S(=O)(=O)O)c(N)ccc23)c(C(=O)O)c1)NC(=O)c1ccc(C2CC2)c(Cc2ccc(F)cc2)n1; read-out = enzyme activity; action = inhibitor; tested at = 10 µM; inhibition = -5%
SMILES = Cc1ccccc1CCc1nnc([C@H]2OCC[C@H]2Cn2ccnc2)o1; read-out = enzyme activity; action = inhibitor; method = Ellman; tested at = 10 µM; inhibition = 24.5%
SMILES = C[C@H](NCc1ccc(-c2ccc(C(F)(F)F)cc2)cc1)C(N)=O; read-out = enzyme activity; tested at = 1 µM; with = 700 µM acetylthiocholine; inhibition = 27%

Repeated from above:
SMILES = O=C(Nc1cccnc1)c1cccc(C2(CNCc3ccc(F)c(F)c3)CC2)c1; read-out = enzyme activity; action = inhibitor; cells = SH-SY5Y; tested at = concentration not given; inhibition = 20%
